Measurements from different studies.
A part holds a random share of what one study measured.

Set 1 — technique: RNA Bind-n-Seq; form: RNA; sample: in vitro; tested at: 100 nM; reference: input RNA pool; reading: higher = stronger binding
Target: RING finger protein unkempt homolog, zinc fingers 1-6, SBP tag (UNK, Homo sapiens, UniProt Q9C0B0, residues 30-357)
Chain of UniProt Q9C0B0 (30-357, looked up): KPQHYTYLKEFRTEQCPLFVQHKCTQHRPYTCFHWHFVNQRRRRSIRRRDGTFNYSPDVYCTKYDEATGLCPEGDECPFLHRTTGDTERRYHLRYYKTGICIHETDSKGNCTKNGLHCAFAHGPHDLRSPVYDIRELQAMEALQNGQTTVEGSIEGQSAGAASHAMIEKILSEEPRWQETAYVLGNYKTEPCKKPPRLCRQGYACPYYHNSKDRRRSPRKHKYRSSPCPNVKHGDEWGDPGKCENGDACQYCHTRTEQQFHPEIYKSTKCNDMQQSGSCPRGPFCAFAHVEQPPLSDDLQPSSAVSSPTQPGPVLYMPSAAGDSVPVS
Setting: RNA with constant flanks, vertebrate orthologous sites, ends assumed
Shared flanks, not repeated: GGGAGUUCUACAGUCCGACGAUC … CAACAGAGGAUUGAGCAUCA
Sequence	bound/input enrichment [ratio]
AGUCUCGGGAGAGGAUUAGGUUCGAUCCUUUACGUGUUAAAAAAGAAAGCAUAAAAACAUUAGAAAAAUUCAGCAAACCAUUUUUAAAGUAGAAGAGGGUUUUAGGUAGAAAAACGUAUU	1.52
CCUGUAAUAAUAAACCAAUUUUUUUUUCUUAAUGUCAAUGUAGAAUUCUUUUGCCCUGUAUCAAAAAUAGAGGUUUCAAAGCAAGUGAUUUGGAGUGUGCAAAUGAGUUUUCACAUGUUA	0.896
UUUUUUUUUUUGCACAUGACAGUGUUUGUAUUGAGGAUCUUCCAAGGAAGAGGGGUGCUGUAGCAGUGGUGCCUGGGUACCUGGCCUCCAGUGUCCCACCUCCUUCACCACCCCGCUUGG	0.43
AGAAAAUUUUAACCAAGAAUCUGAAGGUAGAAAUACAGGACCAUGGUUAUCUUCCUCACUUAGAAAUAGAUGCACACCUUUGUUCUCUAGAAGGAGGCGUGAGGGAAGAGAUGAAUCUUC	0.848
AUUCAAACCUGUGGUACCCUGGCCUCAUGUUGAAGGAGUAGAAGUGGACUUAGAAUCUAUUAGAAGAAAACACAAGGCCAAAAAUGAACAAGAGCACCAUGCUGGAGGAGAGAACCAGAG	0.558
UGUCUGCCUCAUUCUAAAAUUUACACAGUAGACCAUUUGUCAUCCAUGCUGUCCCACAAAUAGUUUUUGUUUACGAUUUAUGACAGGUUUAUGUUACUUCUAUUUGAAUUUCUAUAUUUC	1.15
GGGACGCUUUGACGUGAAAAUUGAAGUUAAGAGCUGAUCACAAGCACAAAUCUUUCCCAUUAGCCAUUUAAAAAGUUAAAAAAAGAUACAAAAACAAAAAACCUACUAGUCUUGAACAAA	1.67
UCUAAACAACUUUAAAGAUGCUUCCUUCUAUGAUGCUUUAGCUCUUCACAUAUUUAAUCACAUUUAUGUAUCUUUUUUAUAUCAGCAGUGUCAAUUCAGAGGGAGCCAUUGGGUGAUUAG	0.453
AGAACAUCUUAACCAAGAAUCUGAAAGUAGAAGUACAGGACCAUGGUUAUCUUCUUCACUUAGAAAUAGAUGCACACCCUUGUUCUCUAGAAGGAGACGAGAGGGACGAGAUGAAUCUUC	0.401
AUCCUUUCGCGCUGUCUCCGGCCGGGGUUGAGGACCAGACGUUUCACCGAGGACCUGCAUUUCAAACAAUUUUUUAAAUUGUACAGGAAGAGAUGUGCUGAAAACAGCAUCUCAAAGUCG	0.218
GGUCUAGUUAGGGAUACCUUUUAAUUUAUUUUAAUAAAGUACUGAAAUGCUGAAAAUCAUUAGUACUAAGUUUAGUUGGACAAGUGAGGUAAGUUUCUUUUCGACAGCUCCAAAGUAAAC	0.771

Set 2 — technique: protein binding microarray; form: double-stranded DNA, one strand shown; sample: in vitro; tested at: not given; reference: not given; reading: higher = stronger binding
Target: Histone acetyltransferase KAT6A, winged helix 2, GST fusion (KAT6A, Homo sapiens, UniProt Q92794, residues 85-181)
Setting: 8-mer, flanks averaged, mean of 2 arrays, mostly near background
Residues (chain): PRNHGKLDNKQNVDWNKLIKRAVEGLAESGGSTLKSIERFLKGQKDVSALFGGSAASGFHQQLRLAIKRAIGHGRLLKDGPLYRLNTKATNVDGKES
Sequence	E-score
CGGCTACC	0.189
GGTCAAAC	-0.0193
CAGTTATC	-0.186
CAACATGC	-0.00799
AGTCTTAT	-0.206
AATCCGAG	0.0933
AAAAGAAT	0.0987
ATGCCGGG	0.0972
GCTGCAAC	-0.042
GTAACCAA	0.082
ACGCAGTA	0.103
GGGTTTAA	-0.00304
ACGACTTG	-0.119
GGATTTTA	-0.0417
AACCCATG	-0.19
CAAATCTG	-0.0162
CATGGTTC	0.0465
GTGAGGCA	-0.103
AGACTAGG	-0.213
CCTACCAA	0.0718
TAAGAGAA	0.018

Set 3 — technique: RNA Bind-n-Seq; form: RNA; sample: in vitro; tested at: 200 nM; setting: whole 134-nt RNA, ends assumed; added: 150 mM KCl; reference: input library; reading: higher = stronger binding
Target: Fragile X messenger ribonucleoprotein 1, C-terminal low-complexity region (Fmr1, Mus musculus, UniProt P35922)
Shared flanks, not repeated: GGGAGUUCUACAGUCCGACGAUC … UGGAAUUCUCGGGUGUCAAGG
Sequence	log2 enrichment
UGGGAGGUGGAUUUUGUUUAUUUUUUGAGCUCAUUUCCAGGGGUGGGAAUUUUUUUUUAAUAUGUGUCAUGAAUAAAGUUGUUUUUGAAA	0.302
CUCAAGUCCUGUGCUACACAUCGUAUGUACCGAAUCGGAAAAAAAGGAGGUGGAAAGUAUUAUGUUACGCCGUUCGGAUCUGCACUUCCA	-0.175
UCCUGUGCUACACAUCGUAUGUACCGAAUCGGGUUUUUGGGAAAAAAAGGGAAAAAGGGAAAGUAUUAUGUUACGCCGUUCGGAUCUGCA	-0.336
GUCCUGUGCUACACAUCGUAUGUACCGAAUCGGGCCCCCGGCCCCCGGGGCCCCCGGGGAAAGUAUUAUGUUACGCCGUUCGGAUCUGCA	-0.996
UGGCCCUGGUGGCAUGCGGGGAGGAAGAGGUGGCCUCAUGGAUCGUGGUGGUCCCGGUGGAAUGUUCAGAGGUGGCGGUGGUGGAGACAG	0.301
UGGCCCAGGUGGCAUGCGGGGAGGAAGAGGUGGCCUCAUGGAUCGUGGUGGUCCCGGUGGAAUGUUCAGAGGUGGCCGUGGUGGAGACAG	0.303
AGUCCUGUGCUACACAUCGUAUGUACCGAAUCGGGGAAAAAAAGGGGAGGGGUGGGGAAAGUAUUAUGUUACGCCGUUCGGAUCUGCACU	1.05
AAGUCCUGUGCUACACAUCGUAUGUACCGAAUCGGGUUUUUUUGGGAGGGAAAGGGAAAGUAUUAUGUUACGCCGUUCGGAUCUGCACUU	0.486
GUCCUGUGCUACACAUCGUAUGUACCGAAUCAAAGUGUGUGUGUGUGUGUGUGUGAAAAAAGUAUUAUGUUACGCCGUUCGGAUCUGCAC	0.274
AAGUCCUGUGCUACACAUCGUAUGUACCGAAUCGGGGCCCCGGCCCCGGGCCCCGGGAAAGUAUUAUGUUACGCCGUUCGGAUCUGCACU	-0.619
CAAGUCCUGUGCUACACAUCGUAUGUACCGAAUCGGAAAAGGGAAAAGGGAAAAGGAAAGUAUUAUGUUACGCCGUUCGGAUCUGCACUU	-0.713
UAACUUUAGAGGAGGAUCUGAUGGAUAUGGCAGUGGACGAGGAUUUGGGGAUGGCUAUAAUGGGUAUGGAGGAGGACCUGGAGGUGGCAA	0.257
AUGCACUUGACAUAGUAGCAAAUUGGUUCUGAAUUAUGCAACUGUUUGCUAUUUAGUAAACUAGCAAAUGAUGCAUGUAUUUUGUUUUUC	-1.47
ACCAUGCAGGUGGGCAUCUUUGGGAAGUCGGGCAAGGGGGGGAUAGGGAGGGGGGUAACACUUUGGGAACAGGUGGUCCCAGGUCGUUUC	1.11

Set 4 — technique: RNA Bind-n-Seq; form: RNA; sample: in vitro; tested at: 365 nM; reference: no-protein control; reading: higher = stronger binding
Target: RNA binding protein fox-1 homolog 2, RRM domain, GST-SBP tag (RBFOX2, Homo sapiens, UniProt O43251-10, residues 100-194)
Setting: natural RNA segment, single round, ends assumed
Shared flanks, not repeated: GGGAGUUCUACAGUCCGACGAUC … UGGAAUUCUCGGGUGCCAA
Construct (chain): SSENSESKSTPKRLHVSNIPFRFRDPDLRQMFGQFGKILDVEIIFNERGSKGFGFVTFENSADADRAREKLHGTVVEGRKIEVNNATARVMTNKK
Sequence	RBNS enrichment (R)
UAACAUUUAGAUAACAUAUGAAGUAUGGCCCCCUUGGAUCCUUGUUUUUAAGUUACUUUCGAUGUGUAUACGAACAAAGACCAGGGAGAAACAGAACUUUUAAAACUAUA	0.399
UUUGAAAGAAAUUUUCAGAUGUUCUGUUCCCUAUAGAGGGCCUAUUCCAGGAUCUAAAUGAAUGGGAAUUUAUAAUUCCUUUCAUAGACUCAAACCUGAAAGCAGAAAUU	0.235
UACAAGUUAAAAUAAUUAGAAACUAUGACUGCGCCUAGUAAAGUCAUCUAGGUUUAUAGUUCAGUAGCUUAGGCAAGGCACACACUGCUCAUCUCCGCUUUUUAGGGUCA	0.553
CCAAAUCAGAACAGCUCAGCAACCCCUGAAUUUGACAGUCUCACCAAUUUCAGAAAAUCAUUAAAAAGAAAAUAUUGAAAGGAAAAUGUUUUCUUUUUGAAGACUUCUGG	0.742
CUGUCCACGCUUAGGAGCCAAGCCGGGAAUGCAUUAAUCAUUUCUUCGUUAACAGAGGAAUCUGCUCUGCAUGGCAUUUCUCCAAGUGAAGACAGGCUUCUUUUUUUUUU	0.475
UCCGGGAAGAAGGAGAAGGAGAUGCCCAGUGUGGCCAAGGCUCUCGACACCAGGAGCUGUUGGGAGAAAGCAAUACGUUUGUGCAGAAUCUCUAUGUAUAUUCUAUUUUA	0.646
CCCCAAUCGAUGCUCUCAGGGUCAUCUCGGGGAUCACAGGGAUCCUUAAAUCUCCAUUCUGUUUGUGGUUGCCCCCUCAACCUCCCCUACACCCUUCCUAUUCUUUUUCA	0.304
AAAACUCACCAUGAAAUGAAAGAAUACUCAGGCUUUGCAGGAGUUAGCCGACCACGAGGAACCUUGUUUCGAAUUAGAGGCAGAGGAAGAGCCAGAGGAGUUUUUGCUGG	0.446
AAGGUAAGCAGGGCUGCCACUGUGGCCACGUAACCCUUCAGGAACCAGUGCUGAAGAAUAAUGAGUGAGAACACUUAAUUUGAGAGUUAGACAAAUACAGCCCACUUUGG	0.468
CUCCUCCCACCCGGCUGCAGAGGCCAGAGGCCCCCAGCCCAGGGCUCCUGCACUUACUUGCUUAUUUGACAACGUUUCAGCGACUCCGUUGGCCACUCCGAGAGGUGGGC	0.522
GCUCUCCCACGCCUGGACUGAGGAAUGCUGGGCAGAAGGCCCCACCAUCUUCUUUCAUUCUGUGCUGUGGUCUGCAGUGGAAACAGCAGGCCUUUCAGCUCCUUGUGUGC	0.289
ACAUACAUGGGGGCAUGUCAUGGGGAUAGAUCAAGAGGCACCAGCCAUUCUUGAGUUUGCCAGCUCCAUCCCAGGCUCCAAGUGCUGUGACUGGUGACUCUCAGGCAGGC	0.789

Repeated from above (set 3):
Sequence	log2 enrichment
UCCUGUGCUACACAUCGUAUGUACCGAAUCGGGUUUUUGGGAAAAAAAGGGAAAAAGGGAAAGUAUUAUGUUACGCCGUUCGGAUCUGCA	-0.336
UGGCCCUGGUGGCAUGCGGGGAGGAAGAGGUGGCCUCAUGGAUCGUGGUGGUCCCGGUGGAAUGUUCAGAGGUGGCGGUGGUGGAGACAG	0.301
CAAGUCCUGUGCUACACAUCGUAUGUACCGAAUCGGAAAAGGGAAAAGGGAAAAGGAAAGUAUUAUGUUACGCCGUUCGGAUCUGCACUU	-0.713
UAACUUUAGAGGAGGAUCUGAUGGAUAUGGCAGUGGACGAGGAUUUGGGGAUGGCUAUAAUGGGUAUGGAGGAGGACCUGGAGGUGGCAA	0.257
